Experimental data gathered from unrelated publications.
Compare with care: the assays were run in different laboratories.
RET: Proto-oncogene tyrosine-protein kinase receptor Ret (RET, Homo sapiens, UniProt P07949)
RET V804M: Proto-oncogene tyrosine-protein kinase receptor Ret (RET, Homo sapiens, UniProt P07949, V804M)
RET V804L: Proto-oncogene tyrosine-protein kinase receptor Ret (RET, Homo sapiens, UniProt P07949, V804L)
RET M918T: Proto-oncogene tyrosine-protein kinase receptor Ret (RET, Homo sapiens, UniProt P07949, M918T)

SMILES	target	observed	method	concentration	relative to	remaining binding
COc1ccc(NC(=O)Nc2ccc3c(c2)C(=O)N(C(C)CO)CC(C)C(CN(C)Cc2ccc4c(c2)OCO4)O3)cc1 (stereo not drawn)	RET	binding	competition with immobilised ligand	10 µM	–	100%
CCN1CCN(Cc2ccc(C(=O)Nc3ccc(C)c(NCc4cnc5[nH]ccc5c4OC)c3)cc2C(F)(F)F)CC1	RET V804M	binding	competition with immobilised ligand	1 µM	–	2.2%
CNC1C[S+]2CC[S+]3CC[S+](C1)[Ru-4]321([N]=C=S)[n]2c3ccc(OC)cc3c3c4c(c5cc(F)c[n+]1c5c32)C(=O)NC4=O (stereo not drawn)	RET V804M	–	KinomeScan	0.1 µM	untreated	82%
COc1c(Cl)cccc1Nc1c(-c2ccncc2C#C[C@@]2(C)CCCN2C(=O)/C=C/CN(C)C)[nH]c2c1C(=O)NCC2	RET V804L	binding	competition with immobilised ligand	3 µM	–	97%
CN1CCN(Cc2ccc(NC(=O)c3cccc(C#Cc4cnc(N)c5ncccc45)c3)cc2C(F)(F)F)CC1	RET	cell-free assay	competition with immobilised ligand	50 nM	–	0.1%
Cc1cnc2nc1Nc1cccc(c1)COC/C=C/COCc1cc(ccc1OCCN1CCOCC1)N2	RET	binding	competition with immobilised ligand	0.1 µM	–	23%
Cc1ccc(-c2c(/C=C(\C#N)C(=O)NC(C)C)n(CCCO)c3ncnc(N)c23)cc1	RET V804L	cell-free assay	competition with immobilised ligand	1 µM	–	96%
CCN1CCN(Cc2ccc(NC(=O)c3ccc(C)c(NC(=O)c4cncc(-c5cccs5)c4)c3)cc2C(F)(F)F)CC1	RET M918T	binding	competition with immobilised ligand	1 µM	–	0.1%
CNC(=O)C1CCN(c2cc(C)c(F)cc2NC(=O)c2ccc(-c3cc(O)ccc3C)c(C)c2)CC1	RET	binding	competition with immobilised ligand	1 µM	–	45%
C=CC(=O)N1CCCC(n2c(=O)c3ncccc3n(Cc3ccc(Oc4ccccc4)cc3)c2=O)C1 (stereo not drawn)	RET M918T	cell-free assay	competition with immobilised ligand	1 µM	–	94%
C=CC(=O)N1CCc2ccc(-n3c(=O)ccc4cnc5ccc(-c6cnn(C)c6)cc5c43)cc21	RET V804L	–	KINOMEscan	1 µM	DMSO control	94%
CNS(=O)(=O)Nc1nccc(Cc2c(C)c3ccc(Oc4ncccc4F)cc3oc2=O)c1F	RET	cell-free assay	competition with immobilised ligand	10 µM	–	100%
CC(C)=CC1OC(C)(C)C2C=C3C(=O)C(Cl)=CC(O)C3C3C(O)C4OC4C(=O)C132 (stereo not drawn)	RET V804L	cell-free assay	competition with immobilised ligand	10 µM	–	91%
Cc1cc(NC(=O)[C@H](O)c2cc(F)cc(F)c2)ccc1-c1cnc(N)c(C(=O)NC(C)C)c1	RET M918T	binding	competition with immobilised ligand	1 µM	–	50%
Nc1ncc2c(n1)-c1c([nH]c3ccc(C4=CCOCC4)cc13)CCC2	RET	binding	competition with immobilised ligand	1 µM	–	77%
